Results pooled from the literature.
Parts stem from different laboratories: compare values within a part only. Substitutions count along the parent as printed.

Sample 1
Target: Transcription factor Sp1 (SP1, Homo sapiens, UniProt P08047, residues 1-785, full length assumed)
UniProt P08047, sequence (whole entry, looked up): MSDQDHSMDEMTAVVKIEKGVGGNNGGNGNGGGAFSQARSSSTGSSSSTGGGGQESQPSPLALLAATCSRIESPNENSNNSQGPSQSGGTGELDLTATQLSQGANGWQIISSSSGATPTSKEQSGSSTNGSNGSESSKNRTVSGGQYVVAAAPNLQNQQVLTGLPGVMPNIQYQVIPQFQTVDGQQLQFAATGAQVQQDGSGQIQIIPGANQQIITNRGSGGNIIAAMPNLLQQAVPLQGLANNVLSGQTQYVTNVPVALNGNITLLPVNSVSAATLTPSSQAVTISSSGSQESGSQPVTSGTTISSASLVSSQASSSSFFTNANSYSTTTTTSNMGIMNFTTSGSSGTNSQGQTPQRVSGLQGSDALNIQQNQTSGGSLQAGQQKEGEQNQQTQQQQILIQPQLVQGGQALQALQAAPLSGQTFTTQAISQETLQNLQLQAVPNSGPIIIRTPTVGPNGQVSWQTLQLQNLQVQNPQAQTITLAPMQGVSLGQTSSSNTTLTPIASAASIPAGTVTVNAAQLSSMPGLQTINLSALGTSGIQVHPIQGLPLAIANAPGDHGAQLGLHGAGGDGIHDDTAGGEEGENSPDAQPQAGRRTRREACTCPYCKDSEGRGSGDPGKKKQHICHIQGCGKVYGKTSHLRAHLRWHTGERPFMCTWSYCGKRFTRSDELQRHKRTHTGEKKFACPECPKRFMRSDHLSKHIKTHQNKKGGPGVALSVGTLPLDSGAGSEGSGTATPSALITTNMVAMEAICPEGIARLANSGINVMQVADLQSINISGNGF
Technique: protein-binding microarray
Form: double-stranded DNA, one strand shown
Medium: in vitro
Tested at: not given
Setting: k-mer, scored over probes, only values ≥0.25
Direction: higher = stronger binding
Quantity: E-score
ACATATTC: 0.296
ATTACCCA: 0.265
GGGGAGTA: 0.334
CCGCCTCC: 0.374
AACGCCCA: 0.425
ACATGGGG: 0.259
GCCCGCCC: 0.48
GCCCCTAC: 0.292

Sample 2
Target: Fragile X messenger ribonucleoprotein 1, C-terminal low-complexity region (Fmr1, Mus musculus, UniProt P35922)
Technique: RNA Bind-n-Seq
Form: RNA
Medium: in vitro
Tested at: 200 nM
Setting: whole 134-nt RNA, ends assumed
With: 150 mM LiCl
Baseline: input library
Direction: higher = stronger binding
Quantity: log2 enrichment
All molecules: 7-deaza-guanosine replaces G
Shared flanks, not repeated: GGGAGUUCUACAGUCCGACGAUC … UGGAAUUCUCGGGUGUCAAGG
AAGUCCUGUGCUACACAUCGUAUGUACCGAAUCAAACCCAAACCCCCAAACCCAAAAAAGUAUUAUGUUACGCCGUUCGGAUCUGCACUU: 0.111
CACAGACAACACGCACCCACACAGACACAGAGGGAAGGGGUUGGGAUGGGGACAGGGUGCACAGCAGGGCGGGGUAGGACCCUAGCCCCU: -0.313
UCAAGUCCUGUGCUACACAUCGUAUGUACCGAAUCGGGCCGGGGCCGGGCCGGGGAAAGUAUUAUGUUACGCCGUUCGGAUCUGCACUUC: 0.458
CUCAAGUCCUGUGCUACACAUCGUAUGUACCGAAUCGGGUGGGUGGGGUGGGGAAAGUAUUAUGUUACGCCGUUCGGAUCUGCACUUCCA: -0.452
GGCAGGAGGAAGAGCGCAGGCGCCGUGAAGAAGAGAUGCGGCGGCAGCAAGAAGAAAUGAUGCGGCGACAGCAGGAAGGAUUCAAGGGAA: 0.793
AAGUCCUGUGCUACACAUCGUAUGUACCGAAUCGGCCCCGGGCCCCGGCCCCGGGGAAAGUAUUAUGUUACGCCGUUCGGAUCUGCACUU: -2.14
UUGCGAAAAGGACCAAUUCCAGUGCCGGAACGAGCGCUGCAUCCCCUCUGUGUGGAGAUGCGACGAGGACGAUGACUGCUUAGACCACAG: -0.477
CCUGUGCUACACAUCGUAUGUACCGAAUCGGUUUUUUUGGGUUUUUUUGGUUUUUUUGGGGAAAGUAUUAUGUUACGCCGUUCGGAUCUG: -0.633

Sample 3
Target: ABI1, truncated, D143A, DHFR fusion (Arabidopsis thaliana)
Technique: DHFR PCA, deep sequencing
Medium: yeast
Setting: methotrexate growth selection, single substitutions
With: (+)-ABA 58 µM
Baseline: wild-type fitted maximum
Direction: higher = stronger binding
Quantity: relative binding score
Starting sequence: PYL1, truncated, DHFR fusion (Arabidopsis thaliana); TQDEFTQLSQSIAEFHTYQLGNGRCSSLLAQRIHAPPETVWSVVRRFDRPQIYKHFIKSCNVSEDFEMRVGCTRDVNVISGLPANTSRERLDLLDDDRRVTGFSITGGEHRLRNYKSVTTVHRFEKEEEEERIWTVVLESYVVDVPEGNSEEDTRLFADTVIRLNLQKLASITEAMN; partner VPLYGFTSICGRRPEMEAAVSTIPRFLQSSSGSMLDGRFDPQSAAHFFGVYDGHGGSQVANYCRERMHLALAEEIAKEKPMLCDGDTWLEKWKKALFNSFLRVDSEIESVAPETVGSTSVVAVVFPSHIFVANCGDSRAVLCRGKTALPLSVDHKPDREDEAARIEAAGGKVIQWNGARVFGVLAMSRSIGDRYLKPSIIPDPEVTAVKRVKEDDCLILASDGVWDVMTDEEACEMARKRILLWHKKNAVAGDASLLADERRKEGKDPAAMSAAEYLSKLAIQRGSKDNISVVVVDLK
S63F: 54.1%
A30K: 91.7%
G71R: 17.7%
K168Y: 46.3%
L169F: -9.98%
T160D: 8.15%
E125W: 82.2%
P146G: 50.6%

Further values, each from its own experiment
O=S(=O)(Nc1cc(Cl)c(Cl)cc1Cl)c1cc(Cl)c(Cl)cc1Cl — remaining compound (human, microsomes or S9; 2 µM, 0.5 h): 59.6%

For quick reference, copied from above (sample 2):
GGCAGGAGGAAGAGCGCAGGCGCCGUGAAGAAGAGAUGCGGCGGCAGCAAGAAGAAAUGAUGCGGCGACAGCAGGAAGGAUUCAAGGGAA: 0.793
AAGUCCUGUGCUACACAUCGUAUGUACCGAAUCGGCCCCGGGCCCCGGCCCCGGGGAAAGUAUUAUGUUACGCCGUUCGGAUCUGCACUU: -2.14
CCUGUGCUACACAUCGUAUGUACCGAAUCGGUUUUUUUGGGUUUUUUUGGUUUUUUUGGGGAAAGUAUUAUGUUACGCCGUUCGGAUCUG: -0.633
UCAAGUCCUGUGCUACACAUCGUAUGUACCGAAUCGGGCCGGGGCCGGGCCGGGGAAAGUAUUAUGUUACGCCGUUCGGAUCUGCACUUC: 0.458
